Experimental data from different studies.
Every numbered part comes from another study and shows a few of its results, in no order.
UniProt O00238, sequence (whole entry, looked up): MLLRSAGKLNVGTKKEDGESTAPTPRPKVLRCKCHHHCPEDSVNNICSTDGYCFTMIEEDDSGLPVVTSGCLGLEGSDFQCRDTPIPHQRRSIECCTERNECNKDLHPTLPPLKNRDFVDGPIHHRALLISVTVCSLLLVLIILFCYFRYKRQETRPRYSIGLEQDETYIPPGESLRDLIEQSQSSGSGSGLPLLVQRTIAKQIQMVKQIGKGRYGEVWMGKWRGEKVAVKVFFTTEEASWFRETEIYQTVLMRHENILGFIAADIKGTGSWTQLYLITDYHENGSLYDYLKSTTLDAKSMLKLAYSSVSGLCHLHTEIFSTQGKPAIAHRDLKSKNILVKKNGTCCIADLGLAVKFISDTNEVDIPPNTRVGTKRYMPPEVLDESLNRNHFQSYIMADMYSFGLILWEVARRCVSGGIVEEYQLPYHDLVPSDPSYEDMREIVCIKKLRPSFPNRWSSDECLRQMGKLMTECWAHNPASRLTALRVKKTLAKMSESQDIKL
UniProt Q9H2K8, sequence (whole entry, looked up): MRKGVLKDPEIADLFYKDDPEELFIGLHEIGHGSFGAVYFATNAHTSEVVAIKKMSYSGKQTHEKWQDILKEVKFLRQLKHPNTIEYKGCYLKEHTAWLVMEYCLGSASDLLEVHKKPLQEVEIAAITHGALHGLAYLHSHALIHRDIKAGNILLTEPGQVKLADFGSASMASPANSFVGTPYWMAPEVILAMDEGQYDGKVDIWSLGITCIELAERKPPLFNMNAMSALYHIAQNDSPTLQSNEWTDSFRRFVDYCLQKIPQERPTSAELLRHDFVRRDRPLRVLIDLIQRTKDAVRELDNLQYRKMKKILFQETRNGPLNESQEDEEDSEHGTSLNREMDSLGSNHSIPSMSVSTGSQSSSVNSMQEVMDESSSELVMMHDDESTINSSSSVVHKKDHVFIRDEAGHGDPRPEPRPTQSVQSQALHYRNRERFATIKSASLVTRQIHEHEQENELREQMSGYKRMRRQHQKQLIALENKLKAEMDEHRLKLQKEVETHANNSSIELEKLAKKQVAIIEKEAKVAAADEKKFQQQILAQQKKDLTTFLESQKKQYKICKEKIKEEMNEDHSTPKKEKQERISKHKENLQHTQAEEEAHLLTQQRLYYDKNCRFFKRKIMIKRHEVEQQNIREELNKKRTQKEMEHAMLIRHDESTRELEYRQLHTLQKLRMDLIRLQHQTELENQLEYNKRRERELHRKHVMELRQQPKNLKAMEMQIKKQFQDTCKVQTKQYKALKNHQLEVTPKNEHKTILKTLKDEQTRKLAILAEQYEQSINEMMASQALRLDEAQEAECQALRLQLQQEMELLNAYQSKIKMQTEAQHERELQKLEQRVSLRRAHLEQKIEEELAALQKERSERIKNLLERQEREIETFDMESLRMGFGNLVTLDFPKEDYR
UniProt Q15831, sequence (whole entry, looked up): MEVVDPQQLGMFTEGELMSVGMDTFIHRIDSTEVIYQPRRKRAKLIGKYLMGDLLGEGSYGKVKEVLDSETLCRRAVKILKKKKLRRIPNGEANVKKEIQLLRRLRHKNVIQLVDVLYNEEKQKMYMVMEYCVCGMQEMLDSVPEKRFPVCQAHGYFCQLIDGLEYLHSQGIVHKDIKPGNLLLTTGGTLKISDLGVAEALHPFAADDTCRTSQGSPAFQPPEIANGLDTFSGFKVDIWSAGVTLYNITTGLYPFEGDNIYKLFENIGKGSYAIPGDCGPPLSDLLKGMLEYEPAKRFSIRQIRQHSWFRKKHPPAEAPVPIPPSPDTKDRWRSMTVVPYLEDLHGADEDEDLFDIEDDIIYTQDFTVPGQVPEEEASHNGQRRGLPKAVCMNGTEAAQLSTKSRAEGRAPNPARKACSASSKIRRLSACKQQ
UniProt Q9NRP7, sequence (whole entry, looked up): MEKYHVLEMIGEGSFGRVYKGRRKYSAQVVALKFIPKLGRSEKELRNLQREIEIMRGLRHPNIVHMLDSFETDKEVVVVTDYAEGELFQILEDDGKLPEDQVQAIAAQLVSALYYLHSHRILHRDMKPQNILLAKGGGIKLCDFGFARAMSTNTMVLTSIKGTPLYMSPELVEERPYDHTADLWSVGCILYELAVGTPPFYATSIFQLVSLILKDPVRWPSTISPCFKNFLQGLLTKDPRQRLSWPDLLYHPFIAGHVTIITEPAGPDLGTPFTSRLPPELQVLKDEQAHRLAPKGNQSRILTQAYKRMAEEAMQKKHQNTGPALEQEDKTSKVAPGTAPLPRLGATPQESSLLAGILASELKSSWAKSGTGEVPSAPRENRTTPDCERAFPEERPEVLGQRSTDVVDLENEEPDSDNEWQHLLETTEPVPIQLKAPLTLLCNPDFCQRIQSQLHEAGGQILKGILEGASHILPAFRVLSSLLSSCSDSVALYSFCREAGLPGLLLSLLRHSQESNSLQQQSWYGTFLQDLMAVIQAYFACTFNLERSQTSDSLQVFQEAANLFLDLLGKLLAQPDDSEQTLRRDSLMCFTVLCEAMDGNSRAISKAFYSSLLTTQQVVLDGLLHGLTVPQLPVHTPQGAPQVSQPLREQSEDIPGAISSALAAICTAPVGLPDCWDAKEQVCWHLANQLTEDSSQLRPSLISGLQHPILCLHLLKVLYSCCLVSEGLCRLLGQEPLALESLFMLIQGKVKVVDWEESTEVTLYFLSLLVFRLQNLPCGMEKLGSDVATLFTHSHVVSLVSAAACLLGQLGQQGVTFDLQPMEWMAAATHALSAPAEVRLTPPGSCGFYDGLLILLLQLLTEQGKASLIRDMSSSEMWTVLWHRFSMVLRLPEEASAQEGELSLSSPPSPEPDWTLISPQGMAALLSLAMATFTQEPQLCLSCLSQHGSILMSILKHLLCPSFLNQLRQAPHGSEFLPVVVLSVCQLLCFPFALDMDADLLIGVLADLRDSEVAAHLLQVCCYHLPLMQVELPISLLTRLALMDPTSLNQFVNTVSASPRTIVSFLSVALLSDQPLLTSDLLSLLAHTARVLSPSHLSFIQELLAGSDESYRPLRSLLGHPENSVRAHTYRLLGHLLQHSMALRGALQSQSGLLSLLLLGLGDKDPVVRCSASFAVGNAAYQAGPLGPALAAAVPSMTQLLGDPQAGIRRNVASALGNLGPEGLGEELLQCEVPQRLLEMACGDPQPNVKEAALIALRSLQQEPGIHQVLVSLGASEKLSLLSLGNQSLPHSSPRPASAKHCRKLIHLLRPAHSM
UniProt Q8IYT8, sequence (whole entry, looked up): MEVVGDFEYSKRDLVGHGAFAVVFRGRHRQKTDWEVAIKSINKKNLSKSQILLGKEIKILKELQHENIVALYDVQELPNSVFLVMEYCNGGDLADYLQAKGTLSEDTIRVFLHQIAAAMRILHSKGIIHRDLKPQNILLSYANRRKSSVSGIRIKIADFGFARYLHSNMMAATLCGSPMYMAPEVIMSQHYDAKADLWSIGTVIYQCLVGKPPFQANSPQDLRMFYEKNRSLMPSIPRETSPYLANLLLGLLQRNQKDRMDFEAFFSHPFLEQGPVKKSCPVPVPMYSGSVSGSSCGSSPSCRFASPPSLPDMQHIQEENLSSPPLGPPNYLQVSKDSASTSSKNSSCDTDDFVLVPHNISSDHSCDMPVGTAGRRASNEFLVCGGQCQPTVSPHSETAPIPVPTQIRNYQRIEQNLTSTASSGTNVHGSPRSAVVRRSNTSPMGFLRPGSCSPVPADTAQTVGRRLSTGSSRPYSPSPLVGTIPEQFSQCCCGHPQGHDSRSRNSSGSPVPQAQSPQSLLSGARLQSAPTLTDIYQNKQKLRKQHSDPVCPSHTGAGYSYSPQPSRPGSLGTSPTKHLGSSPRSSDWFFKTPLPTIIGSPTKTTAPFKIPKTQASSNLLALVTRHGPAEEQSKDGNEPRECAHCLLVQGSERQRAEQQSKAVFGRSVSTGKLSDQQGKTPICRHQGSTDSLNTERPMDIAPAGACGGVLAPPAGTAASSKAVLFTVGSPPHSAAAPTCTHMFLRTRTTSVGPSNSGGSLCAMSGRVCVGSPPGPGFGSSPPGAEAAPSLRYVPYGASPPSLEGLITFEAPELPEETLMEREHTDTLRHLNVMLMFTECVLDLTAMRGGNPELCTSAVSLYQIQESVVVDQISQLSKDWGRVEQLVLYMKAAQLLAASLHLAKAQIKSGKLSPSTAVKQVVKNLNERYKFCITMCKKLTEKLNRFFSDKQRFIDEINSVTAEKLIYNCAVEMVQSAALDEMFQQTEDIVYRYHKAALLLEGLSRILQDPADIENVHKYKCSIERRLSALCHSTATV
UniProt P11362, sequence (whole entry, looked up): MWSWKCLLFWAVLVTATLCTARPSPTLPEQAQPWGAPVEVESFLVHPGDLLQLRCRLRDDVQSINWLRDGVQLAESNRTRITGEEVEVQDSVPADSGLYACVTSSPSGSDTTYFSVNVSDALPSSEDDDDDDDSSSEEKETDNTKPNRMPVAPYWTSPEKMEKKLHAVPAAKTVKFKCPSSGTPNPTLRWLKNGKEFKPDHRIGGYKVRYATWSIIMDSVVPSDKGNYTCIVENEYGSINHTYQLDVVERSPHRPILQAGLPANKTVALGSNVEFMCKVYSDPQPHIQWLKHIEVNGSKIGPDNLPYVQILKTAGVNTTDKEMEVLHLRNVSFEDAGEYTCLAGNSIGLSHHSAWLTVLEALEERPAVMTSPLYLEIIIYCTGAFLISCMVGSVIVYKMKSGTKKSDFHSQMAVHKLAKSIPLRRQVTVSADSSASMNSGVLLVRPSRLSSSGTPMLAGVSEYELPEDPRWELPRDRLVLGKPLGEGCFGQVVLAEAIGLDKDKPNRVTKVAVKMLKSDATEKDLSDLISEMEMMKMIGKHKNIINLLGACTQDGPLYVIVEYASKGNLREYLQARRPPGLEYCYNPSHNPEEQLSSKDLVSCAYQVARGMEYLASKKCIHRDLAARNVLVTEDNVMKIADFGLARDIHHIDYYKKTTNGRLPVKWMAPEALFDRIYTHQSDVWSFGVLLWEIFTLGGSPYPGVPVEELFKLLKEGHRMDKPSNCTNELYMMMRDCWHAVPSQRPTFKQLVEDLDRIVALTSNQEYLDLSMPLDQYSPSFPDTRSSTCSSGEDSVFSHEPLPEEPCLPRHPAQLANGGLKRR

Set 1
SMILES: COc1ccc2c(O[C@@H]3C[C@H]4C(=O)N[C@]5(C(=O)O)CC5/C=C\CCCCC[C@H](NC(=O)OC5CCCC5)C(=O)N4C3)cc(-c3csc(NC(=O)C(C)C)n3)nc2c1C (stereo partly shown)
Concentration: 1 µM
For EGFR (Homo sapiens, UniProt P00533, del747-750/T751S); cell-free assay, competition with immobilised ligand: remaining binding read 62%.
For MYLK2 (Homo sapiens, UniProt Q9H1R3); cell-free assay, competition with immobilised ligand: remaining binding read 100%.
For MAP3K6 (Homo sapiens, UniProt O95382); cell-free assay, competition with immobilised ligand: remaining binding read 98%.
For STK32C (Homo sapiens, UniProt Q86UX6); cell-free assay, competition with immobilised ligand: remaining binding read 63%.
For STK36 (Homo sapiens, UniProt Q9NRP7); cell-free assay, competition with immobilised ligand: remaining binding read 93%.
It gave 70% for remaining binding (MAP3K15 (Homo sapiens, UniProt Q6ZN16); cell-free assay, competition with immobilised ligand).
For TTK (Homo sapiens, UniProt P33981); cell-free assay, competition with immobilised ligand: remaining binding read 100%.
For STK11 (Homo sapiens, UniProt Q15831); cell-free assay, competition with immobilised ligand: remaining binding read 100%.
The remaining binding was 77% (BMPR1B (Homo sapiens, UniProt O00238); cell-free assay, competition with immobilised ligand).
TAOK3 (Homo sapiens, UniProt Q9H2K8); cell-free assay, competition with immobilised ligand — remaining binding: 88%.
For CDC42BPB (Homo sapiens, UniProt Q9Y5S2); cell-free assay, competition with immobilised ligand: remaining binding read 96%.
The remaining binding was 92% (CHUK (Homo sapiens, UniProt O15111); cell-free assay, competition with immobilised ligand).
It gave 100% for remaining binding (CSNK1A1L (Homo sapiens, UniProt Q8N752); cell-free assay, competition with immobilised ligand).
CDK19 (Homo sapiens, UniProt Q9BWU1); competition binding — remaining binding: 90%.
The remaining binding was 85% (EGFR (Homo sapiens, UniProt P00533, T790M); cell-free assay, competition with immobilised ligand).

Set 2
SMILES: COc1ccc(Cl)cc1NC(=O)Nc1cc(C)nc2ccccc12
Effect on: enzyme activity
Action: inhibitor
Concentration: 0.5 µM
Baseline: control
CSNK1G2 (Homo sapiens, UniProt P78368) — remaining activity: 98.5%.
It gave 86.1% for remaining activity (FGFR1 (Homo sapiens, UniProt P11362)).
GSK3B (Homo sapiens, UniProt P49841) — remaining activity: 91.6%.
It gave 84.9% for remaining activity (MAP3K14 (Homo sapiens, UniProt Q99558)).
For MAPKAPK2 (Homo sapiens, UniProt P49137): remaining activity read 109%.
It gave 106% for remaining activity (ULK2 (Homo sapiens, UniProt Q8IYT8)).
MAPK3 (Homo sapiens, UniProt P27361) — remaining activity: 94.6%.
The remaining activity was 101% (MAP3K5 (Homo sapiens, UniProt Q99683)).
It gave 92.4% for remaining activity (ARAF (Homo sapiens, UniProt P10398)).
MERTK (Homo sapiens, UniProt Q12866) — remaining activity: 93.3%.
For ACVR1B (Homo sapiens, UniProt P36896): remaining activity read 97.4%.
It gave 98.2% for remaining activity (TAOK2 (Homo sapiens, UniProt Q9UL54)).
It gave 100% for remaining activity (TBK1 (Homo sapiens, UniProt Q9UHD2)).
It gave 98.4% for remaining activity (FRK (Homo sapiens, UniProt P42685)).

Set 3
Cell line: HaCaT
Concentration: 100 µM
Time: 18 h
CC(C)C[C@H](NC(=O)[C@@H](O)[C@H](N)Cc1ccccc1)C(=O)O has a viability of 93.2%.
O=C(O)c1cc(O)c(O)c(O)c1 has a viability of 75.1%.
For O=C1c2c(O)cccc2C([C@@H]2O[C@H](CO)[C@@H](O)[C@H](O)[C@H]2O)c2cc(CO)cc(O)c21 (stereo partly shown), the viability was 118%.
Fc1ccc([C@@H]2CCNC[C@H]2COc2ccc3c(c2)OCO3)cc1 gave a viability of 16.9%.
Cc1ccsc1/C=C/C1=NCCCN1C gave a viability of 114%.
CN1CCOC(c2ccccc2)c2ccccc2C1 (stereo not shown) gave a viability of 107%.
Cc1[nH]cnc1CN1CCc2c(c3ccccc3n2C)C1=O gave a viability of 56%.
CCNC(=O)CCC/C=C\C[C@@H]1[C@@H](/C=C/[C@@H](O)CCc2ccccc2)[C@H](O)C[C@@H]1O has a viability of 107%.
For C[C@]12CCC(=O)C=C1C=C[C@@H]1[C@@H]2CC[C@@]2(C)[C@H]1CC[C@@]21CCC(=O)O1, the viability was 97.8%.

Set 4
Species: mouse
Medium: microsomes or S9
Concentration: 2 µM
Time: 0.5 h
With O=S(=O)(Nc1cc(-c2cccs2)n[nH]1)c1c[nH]c2ncccc12 the remaining compound was 59%.
For CCOC(=O)C1CCN(C(=O)CCc2ccc(C(C)(C)C)cc2)CC1, the remaining compound was 0.217%.
CCCC(=O)N(Cc1cc2ccc(C)cc2[nH]c1=O)C(C)(C)C gave a remaining compound of 2.6%.
With Cn1c2c(c(=O)c3cc(Oc4ccccc4)ccc31)CCC2 the remaining compound was 4.01%.
For CN(C)CCN1C(=O)C2CC=C(Cl)CC2C1=O (stereo not shown), the remaining compound was 86.1%.
CCCN1C(=O)c2c(C(=O)NCc3ccc(N(C)C)cc3)ncn2CC1(C)C(=O)NCc1ccc(F)cc1 (stereo not shown) gave a remaining compound of 14.9%.
The remaining compound of O=C1NC(=O)c2c1cc1ccccc1c2-c1ccccc1 is reported as 12.6%.
With Cc1ccc2c(-n3ccnc3)c(-c3ccc(Cl)cc3Cl)c([S+](C)[O-])nc2c1 (stereo not shown) the remaining compound was 41.8%.
c1ccc(-c2nc(-c3csc(-c4ccccc4)n3)cs2)cc1 gave a remaining compound of 68.5%.
CC(C)(C)OC(=O)N1CCO[C@H](Cn2nnc3ncc(Br)nc32)C1 gave a remaining compound of 93.1%.
For O=C(CCCSc1ccc(NC(=O)C2CC2)nn1)Nc1cnc2ccccc2c1, the remaining compound was 30.1%.
